Assay results gathered from unrelated publications.
Every numbered part comes from another study and shows a few of its results, in no order. Values joined by “and” are separate records of one study, mostly repeats; a detail may differ.
UniProt Q9Y572, sequence (whole entry, looked up): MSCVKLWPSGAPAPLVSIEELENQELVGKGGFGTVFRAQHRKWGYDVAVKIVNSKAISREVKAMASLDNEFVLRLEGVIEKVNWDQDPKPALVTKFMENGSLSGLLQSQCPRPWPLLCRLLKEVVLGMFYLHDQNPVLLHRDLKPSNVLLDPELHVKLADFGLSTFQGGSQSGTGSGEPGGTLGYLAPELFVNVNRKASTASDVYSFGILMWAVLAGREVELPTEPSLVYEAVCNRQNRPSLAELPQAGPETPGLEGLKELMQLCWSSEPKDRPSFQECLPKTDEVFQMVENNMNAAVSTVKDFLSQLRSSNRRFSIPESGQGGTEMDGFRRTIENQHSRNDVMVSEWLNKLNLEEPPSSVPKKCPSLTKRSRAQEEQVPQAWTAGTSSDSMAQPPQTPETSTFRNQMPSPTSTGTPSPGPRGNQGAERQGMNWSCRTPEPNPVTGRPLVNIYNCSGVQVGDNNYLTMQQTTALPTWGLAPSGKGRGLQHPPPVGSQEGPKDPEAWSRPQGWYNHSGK

Sample 1
SMILES: COc1cc(C(=O)OCCCN2CCCN(CCCOC(=O)c3cc(OC)c(OC)c(OCc4ccc([N+](=O)[O-])cc4)c3)CC2)cc(OC)c1OC
Species: mice, male and female, formalin pain
Route: intrathecal
Added: formalin 5%, 20 µL intraplantar
Reading: higher = more pain
dose | time | licking and flinching time
10 nmol | 10-15 min after formalin | 3.84 a.u. and 12.8 a.u. and 39.3 a.u. and 114 a.u. and 9.93 a.u. and 1.44 a.u. and 1.65 a.u. and 12.2 a.u.
1 nmol | 0-5 min after formalin | 193 a.u. and 134 a.u. and 200 a.u. and 160 a.u. and 184 a.u. and 174 a.u. and 159 a.u. and 187 a.u.
100 nmol | 35-40 min after formalin | 53 a.u. and 0.33 a.u. and 1.98 a.u. and 0.7 a.u. and 76.8 a.u. and 13.4 a.u. and 15.7 a.u. and 55.9 a.u.
1 nmol | 10-15 min after formalin | 11.4 a.u. and 10.9 a.u. and 16.3 a.u. and 15 a.u. and 9.81 a.u. and 49.2 a.u. and 4.03 a.u. and 11 a.u.
10 nmol | 0-10 min | 253 a.u. and 237 a.u. and 189 a.u. and 182 a.u. and 179 a.u. and 229 a.u. and 228 a.u. and 260 a.u.
1 nmol | 30-35 min after formalin | 85.8 a.u. and 10 a.u. and 31.2 a.u. and 26.5 a.u. and 3.66 a.u. and 44.4 a.u. and 36.6 a.u. and 85.4 a.u.
10 nmol | 35-40 min after formalin | 16.1 a.u. and 18 a.u. and 0.94 a.u. and 3.47 a.u. and 5.11 a.u. and 6.87 a.u. and 14.4 a.u. and 71.5 a.u.
10 nmol | 10-45 min | 314 a.u. and 158 a.u. and 245 a.u. and 133 a.u. and 214 a.u. and 184 a.u. and 166 a.u. and 261 a.u.

Mixed results
SMILES | target or system | assay | system | conditions | measurement | value
CC(=O)N[C@@H](Cc1c[nH]c2ccccc12)C(=O)N[C@@H](CCC(=O)C=[N+]=[N-])C(N)=O | P493B lymphoma cells | – | human plasma | concentration not given, plasma fraction of partition | DON concentration | 0.03 nmol/mL
C=CC(=O)N1CCN(c2nc(OC[C@@H]3CCCN3C)nc3c2CCN(c2cccc4cccc(C)c24)C3)C[C@@H]1CC#N | GTPase KRas (KRAS, Homo sapiens, UniProt P01116, G12D) | binding, competitor, NanoBRET | HEK293 | 38.1 pM | normalized BRET | 104%
CC(C)(C)n1nc(-c2ccc(Cl)cc2)c2c(N)ncnc21 | RIPK3 (Homo sapiens, UniProt Q9Y572) | kinase activity, inhibitor, ADP-Glo | – | 250 nM, 1 h | inhibition | 78.1%
C#Cc1cccc2cc(O)cc(-c3ncc4c(N5CC6CCC(C5)N6)nc(OCC56CCCN5CCC6)nc4c3F)c12 | GTPase HRas (HRAS, Homo sapiens, UniProt P01112) | binding, competitor, NanoBRET | HEK293 | 13.7 nM | normalized BRET | 103% and 113% and 95.6% and 106%
CC(C)OC(=O)[C@H](CCC(=O)C=[N+]=[N-])NC(=O)[C@H](Cc1c[nH]c2ccccc12)NC(=O)CN1CCN(C)CC1 | – | – | CES1-/- mouse GI tissue homogenate | 60 min | remaining compound | 2%
CN1CCC[C@H]1COc1nc2c(c(N3CCN(C(=O)C4CC4)[C@@H](CC#N)C3)n1)CCN(c1cccc3cccc(Cl)c13)C2 | GTPase KRas (KRAS, Homo sapiens, UniProt P01116, G13D) | binding, competitor, NanoBRET | HEK293 | 137 nM | normalized BRET | 96.5% and 90.9% and 94.7%
Cn1cc(-c2cccc(CN3CCC4(CC3)COc3c4ccc4c3CN([C@H]3CCC(=O)NC3=O)C4=O)c2)cn1 | Jurkat | – | – | 1 nM, 24 h, added: CD3/CD28 beads, 1:4 | IL-2 level | 110 pg/mL and 119 pg/mL and 87.6 pg/mL
CN1CCC[C@H]1COc1nc2c(c(N3CCN(C(=O)C(F)(F)F)[C@@H](CC#N)C3)n1)CCN(c1cccc3cccc(Cl)c13)C2 | GTPase KRas (KRAS, Homo sapiens, UniProt P01116, Q61H) | target engagement in cells, BRET | – | – | IC50 | 7 µM
COCCOCCOC(=O)[C@H](CCC(=O)C=[N+]=[N-])NC(=O)[C@H](Cc1c[nH]c2ccccc12)NC(C)=O | P493B lymphoma cells | – | human plasma | concentration not given, plasma fraction of partition | DON concentration | 0.18 nmol/mL

Repeated from above (sample 1):
dose | time | licking and flinching time
1 nmol | 10-15 min after formalin | 11.4 a.u. and 10.9 a.u. and 16.3 a.u. and 15 a.u. and 9.81 a.u. and 49.2 a.u. and 4.03 a.u. and 11 a.u.
10 nmol | 0-10 min | 253 a.u. and 237 a.u. and 189 a.u. and 182 a.u. and 179 a.u. and 229 a.u. and 228 a.u. and 260 a.u.
1 nmol | 30-35 min after formalin | 85.8 a.u. and 10 a.u. and 31.2 a.u. and 26.5 a.u. and 3.66 a.u. and 44.4 a.u. and 36.6 a.u. and 85.4 a.u.
